Measurements of several laboratories.
Every numbered part comes from another study and shows a few of its results, in no order.

Study 1
Target: Ras GTPase-activating protein-binding protein 1, RRM domain (G3BP1, Homo sapiens, UniProt Q13283)
UniProt Q13283, sequence (whole entry, looked up): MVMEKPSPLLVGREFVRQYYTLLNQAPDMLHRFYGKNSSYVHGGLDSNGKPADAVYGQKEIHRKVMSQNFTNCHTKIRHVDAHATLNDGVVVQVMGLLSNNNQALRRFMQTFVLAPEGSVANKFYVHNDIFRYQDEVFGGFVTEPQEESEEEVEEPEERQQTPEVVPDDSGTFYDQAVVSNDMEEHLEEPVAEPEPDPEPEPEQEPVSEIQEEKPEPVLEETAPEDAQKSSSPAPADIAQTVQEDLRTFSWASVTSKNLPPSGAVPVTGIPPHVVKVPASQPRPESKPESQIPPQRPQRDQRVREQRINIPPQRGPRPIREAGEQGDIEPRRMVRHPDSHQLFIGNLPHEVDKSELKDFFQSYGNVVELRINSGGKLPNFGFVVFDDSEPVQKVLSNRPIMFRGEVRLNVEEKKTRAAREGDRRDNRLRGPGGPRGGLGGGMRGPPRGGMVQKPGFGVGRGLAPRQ
Technique: RNA Bind-n-Seq
Form: RNA
Medium: in vitro
Tested at: 1 µM
Notes: whole 134-nt RNA, ends assumed
With: 150 mM KCl
Reference: input library
Direction: higher = stronger binding
Strand	log2 enrichment
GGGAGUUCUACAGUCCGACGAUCCUGUGCUACACAUCGUAUGUACCGAAUCGGGGAAAAAGGGGUUUUUUUGGGGUUUUUGGGGAAAGUAUUAUGUUACGCCGUUCGGAUCUGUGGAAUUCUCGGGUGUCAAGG	1.06
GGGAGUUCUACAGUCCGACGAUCAGUCCUGUGCUACACAUCGUAUGUACCGAAUCGGGGUUUGGGGUUUUUGGGGUGGGGAAAGUAUUAUGUUACGCCGUUCGGAUCUGCACUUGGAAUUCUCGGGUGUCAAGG	1.08
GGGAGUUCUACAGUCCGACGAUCCCUGUGCUACACAUCGUAUGUACCGAAUCGGGGUUUUUUUGGGGAAAAAAAGGGGUGGGGAAAGUAUUAUGUUACGCCGUUCGGAUCUGCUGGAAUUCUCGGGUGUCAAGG	0.0851
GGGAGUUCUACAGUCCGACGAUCGUGCUACACAUCGUAUGUACCGAAUCGGGGUUUUUUUGGGGUUUUUUUGGGGUUUUUUUGGGGAAAGUAUUAUGUUACGCCGUUCGGAUCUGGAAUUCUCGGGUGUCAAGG	0.98
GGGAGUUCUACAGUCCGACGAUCUCAGUGUCUUACCCUGAAGAGAAAGUUGUAGGUUGGCUGUUGAAAUUCAUUCCUUAGAUAUGAUCAGUUUGAUUGCCCGGCUUUAUUGCCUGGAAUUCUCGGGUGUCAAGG	-0.197
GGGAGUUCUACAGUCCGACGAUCCACAGACAACACUCACCCACACAGACACAGAGGGAAGGGGUUGGGAUGGGGACAGGGUGCACAGCAGGGCGGGGUAGGACCCCAGCCCCUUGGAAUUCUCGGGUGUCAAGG	0.181
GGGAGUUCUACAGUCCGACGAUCACCAUGCAGGUGGGCAUCUUUGGGAAGUGGGGCAAGGGGGGGAUAGGGAGGGGGGUAACACUUUGCGAACAGGUGGUCCCAGGUCGUUUCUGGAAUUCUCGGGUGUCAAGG	1.01
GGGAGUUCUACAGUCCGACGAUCAAGUCCUGUGCUACACAUCGUAUGUACCGAAUCGGAAAAAGGAAAAAAAGGAAAGGAAAGUAUUAUGUUACGCCGUUCGGAUCUGCACUUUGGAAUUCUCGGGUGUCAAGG	-0.0232
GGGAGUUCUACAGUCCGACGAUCACCAUGCAGGUGGGCAUCUUUGGGAAGUGGGGCAAGAGGGGGAUAGGGAGGGGGGUAACACUUUGGGAACAGGUGGUCCCAGGUCGUUUCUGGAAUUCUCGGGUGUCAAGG	-0.357

Study 2
Target: Interferon regulatory factor 3, full length, phosphomimetic (IRF3, Homo sapiens, UniProt Q14653, residues 1-427, S386D/S396D/S398D/S402D/T404D/S405D)
Technique: protein-binding microarray
Form: double-stranded DNA, one strand shown
Medium: in vitro
Tested at: 2540 nM top
Notes: 60-bp whole probe
With: salmon DNA 0.4 mg/ml
Reference: random background probes
Direction: higher = stronger binding
All sequences stand within: GCCTAGCAC … GTCTTGATTCGCTTGACGCTGCTG
Residues (chain): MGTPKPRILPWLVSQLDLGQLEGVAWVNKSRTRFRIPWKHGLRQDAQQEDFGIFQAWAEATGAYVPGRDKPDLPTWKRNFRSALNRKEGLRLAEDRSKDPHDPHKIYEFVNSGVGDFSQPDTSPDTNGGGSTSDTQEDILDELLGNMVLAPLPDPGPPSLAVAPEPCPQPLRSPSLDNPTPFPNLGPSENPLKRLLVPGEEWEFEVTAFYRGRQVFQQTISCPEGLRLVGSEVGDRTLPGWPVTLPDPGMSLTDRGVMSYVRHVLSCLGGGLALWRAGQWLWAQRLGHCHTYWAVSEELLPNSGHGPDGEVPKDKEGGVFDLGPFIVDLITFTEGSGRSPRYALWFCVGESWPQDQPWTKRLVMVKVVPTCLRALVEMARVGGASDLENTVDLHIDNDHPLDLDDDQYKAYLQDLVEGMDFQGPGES
Strand	fitted relative affinity [z-score]
GACGGTATCTGGTATCGGGACGTGCTA	1.08
TCACAAAAATGATTGGTACTGTGCTAG	-0.208
GACGGTTTAGGACTGGGGACGTGCTAG	0.415
TTAGGTTCCCTTCTCCTTTAGTGCTAG	8.03
TCAATGATCTCTCTGGGACTGTGCTAG	-0.594
GACGGACTGCTTCTCTTGACGTGCTAG	-0.423
TACGGTTTCGGTTCCGGGACGTGCTAG	10.2
GAAGGACTGGACTTTCGGGACGTGCTA	-0.0522
GACGGGTTCGGGTTTCGGGACGTGCTA	1.46
TTAGGTATCGAATTTCGGTTAGTGCTA	2.01
CATCATTTTTCCCTCTGGAAGTGCTAG	1.72
ATATATGTGTATATATAATAGTGCTAG	0.712
TTAGAACTGAGTTTCGATTGGTGCTAG	1.52
TCAATTTTCATTAACTGACTGTGCTAG	0.965
TGCCCCCACACTCCTAGCACGTGCTAG	-0.114
TTAGATATCGGGTTCCGATTAGTGCTA	2.15
TTAGGACTGTGTCTCGGTTAGTGCTAG	-0.371
GGCGAACTGAGTATCGAGACGTGCTAG	-0.356
TTAGGATTGGGGACTGGGTTAGTGCTA	-0.967

Study 3
Target: Histone acetyltransferase KAT6A, both winged helices, GST fusion (KAT6A, Homo sapiens, UniProt Q92794, residues 1-181)
Technique: protein binding microarray
Form: double-stranded DNA, one strand shown
Medium: in vitro
Tested at: not given
Notes: 8-mer, flanks averaged, mean of 2 arrays, mostly near background
Reference: not given
Direction: higher = stronger binding
Construct (chain): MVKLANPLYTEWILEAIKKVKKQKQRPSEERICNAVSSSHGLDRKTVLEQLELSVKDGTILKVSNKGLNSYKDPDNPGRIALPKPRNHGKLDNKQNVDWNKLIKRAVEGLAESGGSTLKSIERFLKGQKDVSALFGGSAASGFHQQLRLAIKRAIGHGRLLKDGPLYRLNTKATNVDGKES
Strand	E-score
CTAATGAC	-0.175
GAGCCTCC	-0.126
CTAGGGTC	-0.229
CCAGCTCA	-0.144
CACCGCAG	-0.0079
GCTGCGGA	0.0546
TCTAAAAA	-0.0342
ACACACGA	-0.0553
CATTAAAA	-0.0513
CCGTCTAG	0.232
GGGAGAGA	-0.235
ATGGGATG	-0.215
AATGGGCT	-0.187
GAGGCAAA	-0.264
ACCGGTGA	0.217
CCACTTAG	-0.179
ACCACCCA	-0.236

Study 4
Target: RNA binding protein fox-1 homolog 2, RRM domain, GST-SBP tag (RBFOX2, Homo sapiens, UniProt O43251-10, residues 100-194)
Technique: RNA Bind-n-Seq
Form: RNA
Medium: in vitro
Tested at: 365 nM
Notes: natural RNA segment, single round, ends assumed
Reference: no-protein control
Direction: higher = stronger binding
Construct (chain): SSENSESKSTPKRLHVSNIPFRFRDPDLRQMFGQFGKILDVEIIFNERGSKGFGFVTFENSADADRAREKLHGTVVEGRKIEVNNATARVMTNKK
Strand	RBNS enrichment (R)
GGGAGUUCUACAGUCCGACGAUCACUGAGGGGUCUGUAGGUUUGACUAAAAUAAUAAAUGCUAGGCGUGUUUGAUGCGCUUUUAACUUUGGCAUUGAGUCUCCCGUUCUUGUUUUUAAUGGUGCAAUGAUCAUUGGAAUUCUCGGGUGCCAA	0.619
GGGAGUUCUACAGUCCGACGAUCUACUUUCCCAGACUGGUGGCAUCUGAGUUCCCCAUCCUACCACUCUCACCCCACUUUCCUGCCCCACCUAAACCCUCGUUUUAGUAAUUUGUAGUGACUGUUCCCUUCCCUGGAAUUCUCGGGUGCCAA	0.745
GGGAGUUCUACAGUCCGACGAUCGGCGAUGUGUUAUAGACGGUGCUCACUCCCAAGGGACAGCAAGUGAGCAGAGAUGUACUGCAAAGUCGCCAGUCACUGCUGCAAGGUGGCCUCUGCCUGGGGCCUCCAGAUGGAAUUCUCGGGUGCCAA	0.307
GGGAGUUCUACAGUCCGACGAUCCAACACGUGUCCCUACAGGCAAAGUGUCCUGGCAUUUAAAACCCAGAUUAUCCCUGGGUUUGGGCUGCAGUCACCUGGAGAAGCUGGUAGGGUAAGGGAGAGGGACCCUGUGGAAUUCUCGGGUGCCAA	0.576
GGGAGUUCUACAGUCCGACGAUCGAAAACAAACUGGAAACUUGUUUCUUUUUUUGUAUAAAUGAGAGAUUGCAAAUGUAGUGUAUCACUGAGUCAUUUGCAGUGUUUUCUGCCACAGACCUUUGGGCUGCCUUUGGAAUUCUCGGGUGCCAA	0.234
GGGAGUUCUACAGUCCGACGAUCGUAAUUUGAUAUAUUUCAUGGUGGCAAAAUAUUAGCUCUAUUUUGGGACUUUUUCUAGACUUACAUUUAUUCAAAUGCAUAGGAAUAUGUCCUUGUGAUUAUCAGGAUCUUGGAAUUCUCGGGUGCCAA	0.384
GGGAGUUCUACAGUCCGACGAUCUGGAACCUGAGGGGCCAGCAGGCCUCUCUGAAGGCCUCCAUGGAGCAAACGGAGCCACCUCGGGAAAGAGUUUAAUGGAAUAUUUUUGUACCCGAUGUUUACAGAUGCUGUGGAAUUCUCGGGUGCCAA	0.353
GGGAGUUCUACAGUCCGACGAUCUUUUGAAUGUGAAACACAUCUGUGCUCCUCUUGUCUAUUUUUUCUCUUCAUGUUUUAACAAAAAAGAAAAAAAGAAAAAAAAUCCCAUCCCUUUUGUACAUACUCCUGUAUGGAAUUCUCGGGUGCCAA	0.384

Some of these lines once more (study 4):
Strand	RBNS enrichment (R)
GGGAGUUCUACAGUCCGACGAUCUGGAACCUGAGGGGCCAGCAGGCCUCUCUGAAGGCCUCCAUGGAGCAAACGGAGCCACCUCGGGAAAGAGUUUAAUGGAAUAUUUUUGUACCCGAUGUUUACAGAUGCUGUGGAAUUCUCGGGUGCCAA	0.353
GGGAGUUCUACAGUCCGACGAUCCAACACGUGUCCCUACAGGCAAAGUGUCCUGGCAUUUAAAACCCAGAUUAUCCCUGGGUUUGGGCUGCAGUCACCUGGAGAAGCUGGUAGGGUAAGGGAGAGGGACCCUGUGGAAUUCUCGGGUGCCAA	0.576
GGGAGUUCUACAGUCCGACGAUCACUGAGGGGUCUGUAGGUUUGACUAAAAUAAUAAAUGCUAGGCGUGUUUGAUGCGCUUUUAACUUUGGCAUUGAGUCUCCCGUUCUUGUUUUUAAUGGUGCAAUGAUCAUUGGAAUUCUCGGGUGCCAA	0.619
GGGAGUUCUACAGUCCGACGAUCGAAAACAAACUGGAAACUUGUUUCUUUUUUUGUAUAAAUGAGAGAUUGCAAAUGUAGUGUAUCACUGAGUCAUUUGCAGUGUUUUCUGCCACAGACCUUUGGGCUGCCUUUGGAAUUCUCGGGUGCCAA	0.234
